Measured values pooled from the literature.
Numbered parts are unrelated; each lists some results of a single study. Positions count from the first letter of the parent shown.

Study 1
Target: Interferon regulatory factor 7, full length, phosphomimetic (IRF7, Homo sapiens, UniProt Q92985, residues 1-503, S471D/S472D/S475D/S476D/S477D/S483D/S484D/S487D)
Chain of UniProt Q92985 (whole entry, unmodified, looked up): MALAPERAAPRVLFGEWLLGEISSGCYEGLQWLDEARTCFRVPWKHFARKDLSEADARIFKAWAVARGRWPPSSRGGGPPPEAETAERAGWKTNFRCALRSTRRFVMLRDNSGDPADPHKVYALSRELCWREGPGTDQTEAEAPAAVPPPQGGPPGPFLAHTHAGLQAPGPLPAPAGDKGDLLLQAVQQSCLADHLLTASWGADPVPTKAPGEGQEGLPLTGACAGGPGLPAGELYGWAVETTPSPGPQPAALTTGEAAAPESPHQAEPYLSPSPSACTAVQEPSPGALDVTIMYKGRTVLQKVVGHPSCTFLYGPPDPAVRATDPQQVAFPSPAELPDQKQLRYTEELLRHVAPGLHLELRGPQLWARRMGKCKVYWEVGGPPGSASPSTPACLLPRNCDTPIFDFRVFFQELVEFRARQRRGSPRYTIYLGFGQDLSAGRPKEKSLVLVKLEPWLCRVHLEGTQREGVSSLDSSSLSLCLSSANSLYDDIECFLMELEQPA
Method: protein-binding microarray
Molecule type: double-stranded DNA, one strand shown
Sample: in vitro
Concentration: 2200 nM top
Notes: 60-bp whole probe
Together with: salmon DNA 0.4 mg/ml
Reference: random background probes
Reading: higher = stronger binding
Measurement: fitted relative affinity
Constant ends, left off below: GCCTAGCAC … GTCTTGATTCGCTTGACGCTGCTG
TTAGGACTGGGGTTTCGCTTAGTGCTA: 1.4 z-score
GACGGATTCGGTTCCGGGACGTGCTAG: 3.46 z-score
TCACAGTTGAGTTCTGTTACTGTGCTA: 0.5 z-score
GACGATATCAGACAGGAGACGTGCTAG: 0.0157 z-score
TTAGATTTCGGGTTTCGAGTAGTGCTA: 5.45 z-score
TTAGGACTGGACACTGCGTTAGTGCTA: -0.434 z-score
TCAGGTATAGCACTAAGACTGTGCTAG: -0.35 z-score
TCAATTTGGCATATCTAACTGTGCTAG: 0.703 z-score
TTAGAACTGAGACTGGATTGGTGCTAG: -0.573 z-score
TTAGGACTGGGTATCCGTTAGTGCTAG: -0.287 z-score
TTAGGTTTCGGGATCGGTTAGTGCTAG: 5.89 z-score
TCAATTTTCTCTTATTCACTGTGCTAG: 1.98 z-score
TTAGATATCAGTAACGATTAGTGCTAG: -0.353 z-score
GACGGTTTCGGGTCCGGGACGTGCTAG: 6.69 z-score
TTTCCCTAGAAGACGAAAGAGTGCTAG: 1.35 z-score
TCAAGTTTATACCTTAGACTGTGCTAG: 0.0153 z-score
ATAACTTTTTTTTTTCCCTGGTGCTAG: 1.63 z-score
CAGCCTCTGCATTCCCTCAGGTGCTAG: 0.622 z-score
GACGATATCAGTCTCGAGTCGTGCTAG: 0.816 z-score

Study 2
Target: ABI1, truncated, D143A, DHFR fusion (Arabidopsis thaliana)
Method: DHFR PCA, deep sequencing
Sample: yeast
Notes: methotrexate growth selection, single substitutions
Together with: (+)-ABA 2500 µM
Reference: wild-type fitted maximum
Reading: higher = stronger binding
Measurement: relative binding score
Starting sequence: PYL1, truncated, DHFR fusion (Arabidopsis thaliana); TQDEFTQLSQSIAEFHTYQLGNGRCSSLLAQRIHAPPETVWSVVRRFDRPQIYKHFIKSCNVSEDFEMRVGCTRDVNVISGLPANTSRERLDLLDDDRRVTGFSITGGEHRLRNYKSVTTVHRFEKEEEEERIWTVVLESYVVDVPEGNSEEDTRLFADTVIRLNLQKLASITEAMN; partner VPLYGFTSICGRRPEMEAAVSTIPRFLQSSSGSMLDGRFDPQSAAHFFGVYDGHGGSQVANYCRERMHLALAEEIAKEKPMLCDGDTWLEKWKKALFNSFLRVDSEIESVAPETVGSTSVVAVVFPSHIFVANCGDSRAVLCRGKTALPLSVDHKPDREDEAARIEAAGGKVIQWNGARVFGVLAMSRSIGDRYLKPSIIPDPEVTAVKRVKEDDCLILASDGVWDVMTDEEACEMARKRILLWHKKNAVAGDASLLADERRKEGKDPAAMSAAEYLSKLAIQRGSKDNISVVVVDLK
M68I: 97.6%
E127C: 95.4%
V44W: -29.3%
P36M: 96.3%
R46P: 71.3%
C72E: 91.4%
D97R: 92%
D3Y: 92.3%
Q10C: 106%
R98T: 99.9%
F47M: 19.8%
A13I: 91.9%

Study 3
Target: Histone acetyltransferase KAT6A, both winged helices, GST fusion (KAT6A, Homo sapiens, UniProt Q92794, residues 1-181)
Method: protein binding microarray
Molecule type: double-stranded DNA, one strand shown
Sample: in vitro
Concentration: not given
Notes: 8-mer, flanks averaged, mean of 2 arrays, mostly near background
Reference: not given
Reading: higher = stronger binding
Measurement: E-score
Target sequence (chain): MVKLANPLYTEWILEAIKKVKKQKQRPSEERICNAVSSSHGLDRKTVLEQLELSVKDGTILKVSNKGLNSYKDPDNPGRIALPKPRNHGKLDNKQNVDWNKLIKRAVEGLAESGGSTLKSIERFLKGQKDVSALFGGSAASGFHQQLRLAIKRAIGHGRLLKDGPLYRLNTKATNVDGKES
CAGTATCA: -0.0747
ATTCCGTA: 0.202
CGTTGCCC: 0.155
GGCTTGTA: -0.0821
GACTCAAC: 0.0716
GGAAAACA: -0.0434
ACCCCTAC: -0.253
AACTCGGG: 0.0778
GTTAACTA: 0.188
ACTGATTC: -0.0169
GCCCGATA: 0.0479
GACAACAC: 0.0281
GTGAAGTA: -0.0702
ACTTACAT: -0.1
ATAACCCG: 0.22
GATACTGC: -0.01
CCCTCTTA: -0.15
AGTAATGG: -0.164
CAGAGAGC: -0.121
AGGACGGA: 0.137
CCCATAGA: -0.286
CGTAGTAG: 0.0381
AACAGACG: 0.0256
ATGGGTTG: -0.146

Study 4
Target: CCNA1, cyclin fold, Cln2 fusion (human)
Method: yeast growth competition, sequencing
Sample: yeast
Notes: weak parent motif
Reference: not given
Reading: higher = stronger binding
Measurement: normalised enrichment score
Starting sequence: INSM1 docking peptide (human); PKAIRKLHFEDEV; partner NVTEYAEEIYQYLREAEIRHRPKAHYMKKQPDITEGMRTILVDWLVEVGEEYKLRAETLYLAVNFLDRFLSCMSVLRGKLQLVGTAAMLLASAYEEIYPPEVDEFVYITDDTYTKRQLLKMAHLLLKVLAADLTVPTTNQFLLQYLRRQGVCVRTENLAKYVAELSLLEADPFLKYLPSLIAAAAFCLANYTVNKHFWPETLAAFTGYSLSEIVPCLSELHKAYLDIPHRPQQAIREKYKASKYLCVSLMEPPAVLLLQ
L7V: 0.339
L7W: -0.0515
I4V: 0.42
R5L: 0.0264
L7D: -0.143
K6T: 0.16
L7K: 0.369
E12Y: 0.247
H8W: 0.137
A3V: 0.934
K2R: 0.669
D11K: 0.666
E12F: 0.87
H8L: 0.527
F9L: 0.047
F9V: 0.00675
K6E: 0.487
I4N: 0.692
K2T: 0.941
F9P: 0.29
H8Y: 0.816
R5C: -0.128
E12L: 0.818
R5F: -0.255
H8A: 0.463

Study 5
Target: JUN, bZIP domain (human)
Method: DHFR protein complementation
Sample: yeast
Notes: single substitutions, most at no-binding floor
Reference: wild-type JUN-FOS pair
Reading: higher = stronger binding
Measurement: binding fitness
Starting sequence: JUN, bZIP domain (human); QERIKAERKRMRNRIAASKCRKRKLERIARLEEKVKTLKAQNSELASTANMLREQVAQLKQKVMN
L31S: -1.27 natural log
Q41C: -1.39 natural log
V56N: -1.24 natural log
E33P: -1.29 natural log
L31C: -1.27 natural log
L45P: -1.43 natural log
V56T: -1.22 natural log
L38S: -1.34 natural log
A46P: -1.35 natural log

Mixed results
PhoQ, residues 284 288 289 292 302 303 TLASMF  fold induction (PhoP, residues 12 14 15 18 19 VQALL (Escherichia coli, UniProt P23836); Sort-seq, measured: YFP reporter; E. coli; PhoQ-PhoP variant library, together with: 10 µM Mg2+; reference: high Mg2+ state, higher = stronger signaling): 5.7

Some of these lines once more (study 4):
F9V: 0.00675
K6E: 0.487
I4N: 0.692
K2T: 0.941
F9P: 0.29
H8Y: 0.816
R5C: -0.128
